Results gathered from unrelated publications.
Each numbered part is a random draw from the data of one study; scales do not carry over between parts.

Set 1
Target: RNA binding protein fox-1 homolog 2, RRM domain, GST-SBP tag (RBFOX2, Homo sapiens, UniProt O43251-10, residues 100-194)
Method: RNA Bind-n-Seq
Molecule type: RNA
Matrix: in vitro
Concentration: 365 nM
Setting: natural RNA segment, single round, ends assumed
Reference: no-protein control
Reading: higher = stronger binding
Quantity: RBNS enrichment (R)
Target sequence (chain): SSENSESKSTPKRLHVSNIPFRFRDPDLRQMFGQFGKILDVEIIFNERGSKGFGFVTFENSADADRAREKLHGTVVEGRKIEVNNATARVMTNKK
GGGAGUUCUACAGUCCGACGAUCUUCAGUAAACAUGUGAAUCCUGAAACCCUAACAUUCUGAUUGCAAUCUCUACUCAUCCCUCCUUCCCUAGAGGAGCCUUUGAGGAGCCUCUUUCCUGGGGACAAAAGGCUUGGAAUUCUCGGGUGCCAA: 0.251
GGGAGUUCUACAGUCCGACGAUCCAUCCCCGUGCUCUGGACCCUCCUGGGUUCCUAUCCCAGCCCCGCAGGACGCCGACCCUGCCUGGACGGCCCCGCCUGGACCGCCUGACCUCGGCCCUCCGGACCCGGCUUGGAAUUCUCGGGUGCCAA: 0.264
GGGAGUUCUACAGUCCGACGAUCCAAUAGUGUAGCUUUUCUACGGGUGACCAGCAGGAGGCUAGACAGGUGGGGGGGUAGGGGAAAGCCACUUUUCCCGGAGGCUUCUCCUCCUCUGCCUGGCCUGUUCCUGUUGGAAUUCUCGGGUGCCAA: 0.48
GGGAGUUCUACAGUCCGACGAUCCUGAGCAUUCUUACACUUGAUGGAAAAAUUAAAGCCUAGAAGGACCAAAGAUGUCCUUAUUGACAAAGCUGGCCUUUGUCACCUGAUUCCAGUAUUCUCACUGUCUUCUAUGGAAUUCUCGGGUGCCAA: 0.381
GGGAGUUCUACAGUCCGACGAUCCAAGGGGACAGCAAGAGGACCCAGAGCAGGGAAAGGGGUCGGGGAGUCACACAACCAAAGGUAGACUCAGACCAGUUCAGUGCUCCUGGUGGCCAUAGGGACCAGAAAGCUGGAAUUCUCGGGUGCCAA: 0.374
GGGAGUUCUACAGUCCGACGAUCCCAUAUCAAGAUUUCUGCUAGCUAAUGCAUAGAGGGAAUACUGUCUAAAAAUAGACCCUUUCUUCCCAAAGGUUGGGAGGUGGGACCUGAGCAGUGGAGUGAAGCCACACUGGAAUUCUCGGGUGCCAA: 0.652
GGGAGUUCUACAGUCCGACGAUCUUUUCUGGUGGUUGUCAAGAAACAAAAGACCAAAAGAGCCUUUUUGUCUUUCUUUUUUAUUUUUUAAGUAUUGGAAUAAGUCUAAUGAAAAAGAAAGUGCCUUAUUUUUCUGGAAUUCUCGGGUGCCAA: 1.29
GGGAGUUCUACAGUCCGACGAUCUUUGCAAUUUGUGAAACAGUGUAUUGUGUUUUGUAAAAUGAUGUCAUGAAAUGGUGGGUCCUUGGAAACCUCCUUUCCGUUCAGCUCUGCCUCUGUUCUUUCAACUCCUUUGGAAUUCUCGGGUGCCAA: 0.675
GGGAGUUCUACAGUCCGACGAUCUGAAGUGUUUCAAAUGUCUGUCAGUUCUCUUGCACGGUCCUAAUAAAAGUGAAAGCCCUCUGUCACGAAACAACAUGGGUGGUCCAAAGAUCAGGGGCAAGACAACUCAGUGGAAUUCUCGGGUGCCAA: 0.506
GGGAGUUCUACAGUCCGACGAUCCUGAACAUUUCCUAUAAAUGGAAUCAGACAUGGUCUUUUGUGUCUGGCUUCUUUCACUCAGUAAUGUUUCUGAAGUUCCUCCCUGUAGUGGCAUCUAUCAGUAAUUGCUUUGGAAUUCUCGGGUGCCAA: 0.278
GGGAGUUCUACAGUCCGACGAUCCUUAGCUAAGGAGCUGAGAAACAGCCACAGUACUCCCUUCUCUUCGCGCACAGGGCCCUCUCUCUUAGAGACUGCUCAGCUUUCGAGUCCAGGGAGGAGUCAGCGGGGAGUGGAAUUCUCGGGUGCCAA: 0.282
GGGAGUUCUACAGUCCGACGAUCGACAGUGACACAUGUAACUUAGCAUAGGCAAAGGGUUCUACAACCAAAGAAGCCACUGUUUGGGGAUGGCGCCCUGGAAAACAGCCUCCCACCUGGGAUAGCUAGAGCAUUGGAAUUCUCGGGUGCCAA: 1.65

Set 2
Target: Protein max, full length (MAX, Homo sapiens, UniProt P61244-2, residues 1-151)
Method: protein-binding microarray
Molecule type: double-stranded DNA, one strand shown
Matrix: in vitro
Concentration: not given
Setting: k-mer, scored over probes, only values ≥0.25
Reading: higher = stronger binding
Quantity: E-score
ATGCTACC: 0.254
CACGCCGG: 0.358
CGTGGGAC: 0.415
CGTGATTC: 0.39
GCCCACGA: 0.301
ACATGCTA: 0.387
AACCACGG: 0.253
ACACGCAA: 0.262
ACGCCACC: 0.272
CATTCACG: 0.251
CCACGCCG: 0.396
AATAGCAT: 0.271
AGAGCACG: 0.383
CATGTGTA: 0.461
CAACGTGC: 0.467
ACCCACGA: 0.353
AGCCCATG: 0.266
CACGCACA: 0.352
CACGAGCA: 0.326
ACGTTGCC: 0.333
CAGGCGGA: 0.263

Set 3
Organism: Saccharomyces cerevisiae
Effect on: binding
Method: competitive growth deep sequencing
Molecule type: peptide
Strain: cyclin D3-Cln2 fusion strain
Concentration: concentration not given
Setting: RxL motif peptides
Reading: direction not given
Quantity: growth enrichment score
PKPLKKLRFDIEG: 0.339
PPHRRRLLFACSP: -0.141
ARYKRKLLINDFG: 0.222
PPVKRRLDLETDH: -0.0223
LPAKRKLDLEGIG: 0.216
PGASRRLFGSSAD: 0.224
QDYERRLLRQIVI: 0.201
STTRRRLFVENDS: 0.212
PSAKRSLGFLPQP: -0.0289

Set 4
Target: Ras GTPase-activating protein-binding protein 1, full length (G3BP1, Homo sapiens, UniProt Q13283)
Sequence of UniProt Q13283 (whole entry, looked up): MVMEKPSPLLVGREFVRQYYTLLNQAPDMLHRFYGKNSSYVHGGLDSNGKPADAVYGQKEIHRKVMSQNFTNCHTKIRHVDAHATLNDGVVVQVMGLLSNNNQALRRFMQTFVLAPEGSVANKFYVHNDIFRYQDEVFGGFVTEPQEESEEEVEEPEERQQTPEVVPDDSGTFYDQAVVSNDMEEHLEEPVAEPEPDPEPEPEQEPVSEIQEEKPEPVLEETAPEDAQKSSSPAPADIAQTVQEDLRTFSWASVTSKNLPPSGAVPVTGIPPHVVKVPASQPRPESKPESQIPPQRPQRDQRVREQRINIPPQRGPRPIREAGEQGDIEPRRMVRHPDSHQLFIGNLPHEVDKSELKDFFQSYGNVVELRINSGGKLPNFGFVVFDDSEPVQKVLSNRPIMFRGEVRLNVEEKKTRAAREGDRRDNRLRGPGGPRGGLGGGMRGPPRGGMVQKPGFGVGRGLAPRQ
Method: RNA Bind-n-Seq
Molecule type: RNA
Matrix: in vitro
Concentration: 200 nM
Setting: whole 134-nt RNA, ends assumed
Added: 150 mM KCl
Reference: input library
Reading: higher = stronger binding
Quantity: log2 enrichment
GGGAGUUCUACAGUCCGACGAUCAGUCCUGUGCUACACAUCGUAUGUACCGAAUCGGGGCCCCGGGCCCCGGCCCCGGGGAAAGUAUUAUGUUACGCCGUUCGGAUCUGCACUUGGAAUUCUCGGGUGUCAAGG: -1.18
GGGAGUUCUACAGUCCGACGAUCUUGCCCUGGUGGCAUGCGGGGAGGAAGAGGUGGCCUCAUGGAUCGUGGUGGUCCCGGUGGAAUGUUCAGAGGUGGCCGUGGUGGAGACAGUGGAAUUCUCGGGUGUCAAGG: 0.123
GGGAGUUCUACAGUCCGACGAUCCCUGUGCUACACAUCGUAUGUACCGAAUCAAAUUUUUUUAAACCCCCAAACCCCCCCAAAAAAGUAUUAUGUUACGCCGUUCGGAUCUGCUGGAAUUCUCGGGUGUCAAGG: -0.145
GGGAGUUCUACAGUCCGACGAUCAAGUCCUGUGCUACACAUCGUAUGUACCGAAUCGGGCCCCGGGGCCCCGGCCCCGGAAAGUAUUAUGUUACGCCGUUCGGAUCUGCACUUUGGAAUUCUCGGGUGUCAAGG: -1.83
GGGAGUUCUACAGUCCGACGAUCCCUGUGCUACACAUCGUAUGUACCGAAUCGGGAAAAAAGGGGAAAAAAGGAAAAAAGGGGAAAGUAUUAUGUUACGCCGUUCGGAUCUGCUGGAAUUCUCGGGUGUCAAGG: -0.567
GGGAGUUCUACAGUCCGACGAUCUCAAGUCCUGUGCUACACAUCGUAUGUACCGAAUCGGAGGUUUGGAAAAAAAGGAAAGUAUUAUGUUACGCCGUUCGGAUCUGCACUUCCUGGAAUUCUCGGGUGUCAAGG: -1.18
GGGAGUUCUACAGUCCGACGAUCGCAGGAAGUAAAAACAAAUGGAAAUGCUUCGGAUAGUGGCAGGGGUGGGGGUUGCUAAGGAAAGGGUGGGAUGGGAAAGGGUAAAGAGUUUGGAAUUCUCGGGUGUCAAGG: 0.717
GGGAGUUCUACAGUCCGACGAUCCACAGACAACACGCACCCACACAGACACAGAGGGAAGGGGUAAAGAUGGGGACAGGGUGCACAGCAGGGCGGGGUAGGACCCCAGCCCCUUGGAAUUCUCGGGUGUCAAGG: 1.26
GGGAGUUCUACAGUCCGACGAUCUCCUGUGCUACACAUCGUAUGUACCGAAUCGGGUUUUUUGGUUUUUUGGGUUUUUUGGGAAAGUAUUAUGUUACGCCGUUCGGAUCUGCAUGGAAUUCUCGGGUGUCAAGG: -0.695
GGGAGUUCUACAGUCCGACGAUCCUCAAGUCCUGUGCUACACAUCGUAUGUACCGAAUCGGGGCCGGGCCGGCCGGGAAAGUAUUAUGUUACGCCGUUCGGAUCUGCACUUCCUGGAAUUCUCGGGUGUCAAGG: -0.172

Repeated from above (set 4):
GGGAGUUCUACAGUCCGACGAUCUCCUGUGCUACACAUCGUAUGUACCGAAUCGGGUUUUUUGGUUUUUUGGGUUUUUUGGGAAAGUAUUAUGUUACGCCGUUCGGAUCUGCAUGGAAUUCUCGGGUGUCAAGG: -0.695
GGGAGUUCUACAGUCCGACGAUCAAGUCCUGUGCUACACAUCGUAUGUACCGAAUCGGGCCCCGGGGCCCCGGCCCCGGAAAGUAUUAUGUUACGCCGUUCGGAUCUGCACUUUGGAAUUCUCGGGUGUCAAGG: -1.83
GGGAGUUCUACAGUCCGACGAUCUUGCCCUGGUGGCAUGCGGGGAGGAAGAGGUGGCCUCAUGGAUCGUGGUGGUCCCGGUGGAAUGUUCAGAGGUGGCCGUGGUGGAGACAGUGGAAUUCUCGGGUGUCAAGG: 0.123
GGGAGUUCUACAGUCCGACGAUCUCAAGUCCUGUGCUACACAUCGUAUGUACCGAAUCGGAGGUUUGGAAAAAAAGGAAAGUAUUAUGUUACGCCGUUCGGAUCUGCACUUCCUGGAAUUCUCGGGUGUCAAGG: -1.18
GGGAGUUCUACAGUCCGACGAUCCCUGUGCUACACAUCGUAUGUACCGAAUCGGGAAAAAAGGGGAAAAAAGGAAAAAAGGGGAAAGUAUUAUGUUACGCCGUUCGGAUCUGCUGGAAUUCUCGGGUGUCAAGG: -0.567
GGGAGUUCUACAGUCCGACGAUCAGUCCUGUGCUACACAUCGUAUGUACCGAAUCGGGGCCCCGGGCCCCGGCCCCGGGGAAAGUAUUAUGUUACGCCGUUCGGAUCUGCACUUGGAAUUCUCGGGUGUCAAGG: -1.18
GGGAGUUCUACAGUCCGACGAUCCACAGACAACACGCACCCACACAGACACAGAGGGAAGGGGUAAAGAUGGGGACAGGGUGCACAGCAGGGCGGGGUAGGACCCCAGCCCCUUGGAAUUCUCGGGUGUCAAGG: 1.26
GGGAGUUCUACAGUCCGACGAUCCUCAAGUCCUGUGCUACACAUCGUAUGUACCGAAUCGGGGCCGGGCCGGCCGGGAAAGUAUUAUGUUACGCCGUUCGGAUCUGCACUUCCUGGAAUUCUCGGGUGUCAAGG: -0.172
